Assay results gathered from unrelated publications.
Each line is one published result; not all experiments were run side by side. Numbers after ± are the reported error.

| SMILES | test | system | conditions | endpoint | value |
| --- | --- | --- | --- | --- | --- |
| O=C/C=C/c1ccccc1 | metabolic stability | human liver microsomes | 10 µM, pH 7.4 | intrinsic clearance (scaled) | 143.3 ± 0.12 mL/min/kg |
| Cc1c(COC(=O)[C@@H]2[C@H](/C=C(\Cl)C(F)(F)F)C2(C)C)cccc1-c1ccccc1 (racemic) |  | pooled human liver cytosol | scaled to in vivo | intrinsic clearance | 0 L/h/g liver |
| CCCCCCCCCN(C)C | RT-S9 substrate depletion | rainbow trout | shaken incubation | intrinsic clearance in vivo | 326 mL/h/g liver |
| CC(C)C[C@H](NC(=O)[C@H](Cc1ccccc1)NC(=O)[C@H](Cc1ccccc1)NC(=O)Cc1ccc(-c2ccccc2)cc1)C(=O)N[C@@H](CCCCN)C(=O)N[C@@H](CCCNC(=N)N)C(=O)N[C@H](C(=O)N[C@@H](Cc1c[nH]c2ccccc12)C(=O)N[C@@H](CCCCN)C(=O)N[C@@H](CCCNC(=N)N)C(=O)O)C(C)C |  | mouse liver microsomes |  | intrinsic clearance | 1350 mL/min/kg |
| C[C@]12CC[C@H]3[C@@H](CCC4=CC(=O)CC[C@@]43C)[C@@H]1CC[C@@H]2O |  | mouse liver microsomes | scaled to liver | intrinsic clearance | 1560 mL/min/kg |
| C[C@]12CC[C@H]3[C@@H](CC=C4CC(O)CC[C@@]43CO)[C@@H]1CCC2O (stereo partly drawn) |  | rat liver microsomes |  | intrinsic clearance | 69.8 µL/min/mg protein |
| COc1ccc(S(=O)(=O)N2CCCCC2)cc1C |  | human liver microsomes |  | intrinsic clearance | 49 L/min |
| CC(C)(C)[C@H](NC(=O)C(F)(F)F)C(=O)N1C[C@H]2[C@@H]([C@H]1C(=O)N[C@H](C#N)C[C@@H]1CCNC1=O)C2(C)C |  | mouse liver microsomes | microsomes 0.5 mg/mL | intrinsic clearance | 93.4 µL/min/mg |
| C[C@H]1COCCN1c1nc(NCc2cccnc2C(F)(F)F)c2cccnc2n1 |  | human hepatocytes | donor | intrinsic clearance | < 1 µL/min/10⁶ cells |

Excerpt of the above:
| SMILES | test | system | conditions | endpoint | value |
| --- | --- | --- | --- | --- | --- |
| Cc1c(COC(=O)[C@@H]2[C@H](/C=C(\Cl)C(F)(F)F)C2(C)C)cccc1-c1ccccc1 (racemic) |  | pooled human liver cytosol | scaled to in vivo | intrinsic clearance | 0 L/h/g liver |
| CCCCCCCCCN(C)C | RT-S9 substrate depletion | rainbow trout | shaken incubation | intrinsic clearance in vivo | 326 mL/h/g liver |
